Experimental data pooled from the literature.
Every numbered part comes from another study and shows a few of its results, in no order.

Study 1
Target: Ras GTPase-activating protein-binding protein 1, full length (G3BP1, Homo sapiens, UniProt Q13283)
Sequence of UniProt Q13283 (whole entry, looked up): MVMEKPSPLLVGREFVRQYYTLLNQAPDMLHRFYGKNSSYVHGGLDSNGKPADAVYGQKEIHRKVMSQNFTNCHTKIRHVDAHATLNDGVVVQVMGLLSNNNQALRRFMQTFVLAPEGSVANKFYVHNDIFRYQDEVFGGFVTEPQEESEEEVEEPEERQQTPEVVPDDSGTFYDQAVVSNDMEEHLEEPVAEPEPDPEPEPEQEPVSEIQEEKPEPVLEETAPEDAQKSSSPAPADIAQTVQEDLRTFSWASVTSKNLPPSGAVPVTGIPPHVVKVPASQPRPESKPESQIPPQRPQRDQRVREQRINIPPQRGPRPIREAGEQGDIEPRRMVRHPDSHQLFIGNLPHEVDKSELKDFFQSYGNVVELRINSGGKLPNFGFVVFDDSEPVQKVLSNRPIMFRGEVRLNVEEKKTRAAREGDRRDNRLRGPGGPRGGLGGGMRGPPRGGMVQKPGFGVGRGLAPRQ
Method: RNA Bind-n-Seq
Molecule type: RNA
Sample: in vitro
Tested at: 200 nM
Setting: whole 134-nt RNA, ends assumed
With: 150 mM KCl
Relative to: input library
Reading: higher = stronger binding
Measurement: log2 enrichment
All sequences stand within: GGGAGUUCUACAGUCCGACGAUC … UGGAAUUCUCGGGUGUCAAGG
CCUCAAGUCCUGUGCUACACAUCGUAUGUACCGAAUCGGUGGAAAAAGGAGGAAAGUAUUAUGUUACGCCGUUCGGAUCUGCACUUCCAG: 0.0821
CCUGUGCUACACAUCGUAUGUACCGAAUCGGGGAAAAAGGGGAAAAAAAGGGGAAAGGGGAAAGUAUUAUGUUACGCCGUUCGGAUCUGC: 0.463
GUCCUGUGCUACACAUCGUAUGUACCGAAUCGGGGUUUUUGGUUUUUGGGGUUUUUGGGAAAGUAUUAUGUUACGCCGUUCGGAUCUGCA: -0.535
CCUGUGCUACACAUCGUAUGUACCGAAUCGGGCCCCCCGGGGCCCCCCGGCCCCCCGGGGAAAGUAUUAUGUUACGCCGUUCGGAUCUGC: -0.592
CCUCAAGUCCUGUGCUACACAUCGUAUGUACCGAAUCGGGCGGGGCGGGGCGGAAAGUAUUAUGUUACGCCGUUCGGAUCUGCACUUCCA: 0.539
ACCAUGCAGGUGGGCAUCUUUGGGAAGUGGGGCAAGGGGGGGAUAGGGAGGGGGGUAACACUUUGGGAACAGGCGGUCCCAGGUCGUUUC: 1.15
UCAAGUCCUGUGCUACACAUCGUAUGUACCGAAUCGGAAAAAAAGGUUUGGUGGAAAGUAUUAUGUUACGCCGUUCGGAUCUGCACUUCC: -1.13
CACAGACAACACGCACCCACACAGACACAGAGGGAAGGGGUUGGGCUGGGGACAGGGUGCACAGCAGGGCGGGGUAGGACCCCAGCCCCU: 1.82
GCAGGAAGUUAAAACAAAUGGAAAUGCUUCGGAUAGUGGCAGGGGUGGGGGUUGCUAAGGAAAGGGUGGGAUGGGAGUGGGUAAAGAGUU: 0.883
GCAGGAAGUAAAAACAAAUCGAAAUGCUUCGGAUAGUGGCAGGGGUGGGGGUUGCUAAGGAAAGGGUGGGAUGGGAGUGGGUAAAGAGUU: 0.743
UGGGAGGUGGAUUUUGUUUAUUUUUUUAGCUCAUUUCCAGGGGUGGGAAUUUUUUUUUAAGAUGUGUCAUGAAUAAAGUUGUUUUUGAAA: 0.458
ACCAUGCAGGUGGGCAUCUUUGGGAAGUGGGGCAAAGGGGGGAUAGGGAGGGGGGUAACACUUUGGGAACAGGUGGUCCCAGGUCGUUUC: 0.959
UCCUGUGCUACACAUCGUAUGUACCGAAUCAAAUUUUUAAACCCCCCCAAACCCCCAAAAAAGUAUUAUGUUACGCCGUUCGGAUCUGCA: -0.0248
UGGGAGGUGGAUUUUGUUUAUUUUUUUAGCUCAUUUCCAGGGGUGGGAAUUUUUUUUUAAUAUGAGUCAUGAAUAAAGUUGUUUUUGAAA: -0.0205

Study 2
Observed: peptide binding
Molecule type: peptide
Sample: yeast competitive growth
With: B1-Cln2 chimera
Reading: direction not given
Measurement: enrichment score
LKGRRLVFDN: -0.449
ESSTVSEEDYFSSHRD: 0.52
KDDDKAWEYEERDRRS: -0.0202
KSKHEEEEWTDDDLVE: 0.766
CFRCLLFSFSGRSGVE: -1.28
GQLVIPLDELTLDTSF: 2.35
ALLRRLQDVANDRGSH: -0.868
SDSTVTKLDFDLEP: 2.58
ISRLFPPRTPGWHQLQ: -2.47
PLRKAKRARLCSSSSS: 2.32
TSPGPVLLHPSPSTTQ: 0.507
EPKTLFLGAGDFQF: 1.36
IQKKLRFEDTLEFVGF: -0.323
QDYERRLLRQIVIQNE: -0.509
SFLIEYEFLIPPSLKP: 0.608
RDLFDCDFGDLTPLDF: 1.65
TRRRLFVENDSP: -0.397
KRRLDLETDHQY: 0.766
VLLKRLQDVVSERANH: -1.21
RVSGLLSWTLSRVLWL: -0.88
SPREGHMMDALYAQVK: -0.201
LAKRALKYTD: -0.436
RSLKLDGLLEEN: -0.432
KPITLDTTDFQESFVT: 0.807
PFSENVSAVQKLDFSD: 2.16

Study 3
Target: Histone acetyltransferase KAT6A, winged helix 1, GST fusion (KAT6A, Homo sapiens, UniProt Q92794, residues 1-85)
Method: protein binding microarray
Molecule type: double-stranded DNA, one strand shown
Sample: in vitro
Tested at: not given
Setting: 8-mer, flanks averaged, mean of 2 arrays, mostly near background
Relative to: not given
Reading: higher = stronger binding
Measurement: E-score
Target sequence (chain): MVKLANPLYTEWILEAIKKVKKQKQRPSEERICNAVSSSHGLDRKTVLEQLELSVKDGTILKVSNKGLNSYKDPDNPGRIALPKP
ATGCAGCC: -0.166
AACCTCCC: -0.031
CAGGACGA: -0.131
ATATATTG: -0.00182
GACACTCC: -0.156
CTCCCATA: -0.209
CGATTCCA: -0.113
AGAATCCT: -0.18
ATCAGTAC: -0.0604
AAGAAAGG: -0.209
ATCGTGGC: -0.0811
GGTCCATA: -0.125
CGAGAGTC: -0.0354
GCTTAGCA: 0.109
CGGTATAG: 0.226
ACCCCCAA: -0.272
ACGCGGCG: 0.438
GCATGCAA: 0.00554
AATTAAAG: -0.189
ATAATAGG: -0.123

Study 4
Target: Prothrombin, mature alpha-thrombin (F2, Homo sapiens, UniProt P00734)
Method: aptamer microarray, sandwich
Molecule type: DNA with 2'F-ANA
Sample: in vitro
Tested at: 200 nM
Setting: whole 15-mer aptamer, many near background
With: Cy3 exosite-II aptamer, 400 nM
Reading: higher = stronger binding
Measurement: mean fluorescence intensity
Oligonucleotide: GGTTGGTGTGGTTGG
2'F-ANA at 3 6 11 12 13 14: 514 a.u.
2'F-ANA at 1 5 8 11 12 14: 44.7 a.u.
2'F-ANA at 1 2 4 5 6 8 12 13 15: 78.4 a.u.
2'F-ANA at 1 6 7 9: 152 a.u.
2'F-ANA at 1 6 7 11 12 13: 245 a.u.
2'F-ANA at 4 5 6 8 10 12 13 14: 45.6 a.u.
2'F-ANA at 2 3 5 6 9 10 14: 48.1 a.u.
2'F-ANA at 1 4 7 8 11 12 13: 203 a.u.
2'F-ANA at 2 3 13 14 15: 419 a.u.
2'F-ANA at 1 2 4 5 7 8 9 11 12 13 15: 66.3 a.u.
2'F-ANA at 1 2 3 8 10 12 14: 53.5 a.u.
2'F-ANA at 2 3 4 7 9 10 15: 323 a.u.
2'F-ANA at 1 2 3 4 5 6 8 10 11 12 15: 55.2 a.u.
2'F-ANA at 1 2 7 10 12 14 15: 49.7 a.u.
2'F-ANA at 1 2 4 8 9 11 13 15: 86.4 a.u.
2'F-ANA at 1 5 11 13 14 15: 43.1 a.u.
2'F-ANA at 2 5 6 9 10 12 13 14 15: 64.1 a.u.

Study 5
Target: RNA binding protein fox-1 homolog 2, RRM domain, GST-SBP tag (RBFOX2, Homo sapiens, UniProt O43251-10, residues 100-194)
Method: RNA Bind-n-Seq
Molecule type: RNA
Sample: in vitro
Tested at: 365 nM
Setting: natural RNA segment, single round, ends assumed
Relative to: no-protein control
Reading: higher = stronger binding
Measurement: RBNS enrichment (R)
All sequences stand within: GGGAGUUCUACAGUCCGACGAUC … UGGAAUUCUCGGGUGCCAA
Target sequence (chain): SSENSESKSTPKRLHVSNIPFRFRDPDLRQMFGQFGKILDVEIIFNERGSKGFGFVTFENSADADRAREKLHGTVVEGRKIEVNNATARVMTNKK
UUAAGCUGAGAAGCACCAAGUCUGACCACCCGUGUGUUGAUGACUUGCAGUCAAUUAACUAUGUGUGCUGCUUCGUGCAACAGGAGAAAGCCAGAAGAGCAGCCUCGGGA: 0.279
AUCCCUGACCAGAGACUAGGGUGCUCUGCCUCUAAUGGUUUCUGGGAUUUCUGUAGAGCUUGGCAGUUUCUGGCUCAUUUCUCUUGAGCACCGCACUAUUCUUGCCAUAG: 0.556
GUUGUGGGACAGAUGGAUUUUAUCAUUGAAUGGCUCUUCUCAGUGUAUGGAUACUGGGUUGGGCCUUGGGUUUUACUCACUUUCAGUAUAGCUUGCCAGUAUUGUUAAGG: 2.65
UGUGCCUGGCGUCUGUCCCGGCCCCGCCUGUCAGAAGAUGAACAUGUAUAGUGGCUAACUUAAGGGGAGUGGGUGACCCUGACACUUCCAGGCACUGUGCCCAGGGUUUG: 0.236
CAAACUCUGCCUCUUCCUCCCAAGUGCUGGGAUUAAGGGCAGGUACCAUAGUGCUCAGCAACCACAACCCUGUCUUUCCAACACGGCCCUAGCGUAAGCACUGAGGCAGU: 0.306
AGCAUAUCUAAGUGCCAUGAAUACAUUUUCCCUACUCUAUAGCAUAGCUCUGUAAAACUUGUCCUGUGAGCGAGGCAGGUGCUAUCUGAGAGAGGGAUCUUGCAGCUGUC: 0.443
AGACCCCCACACCUCAGUUCCCUUGGCCUCAGAAUUCACAAAAUUUCCACAAAAUCUGUCCAAAGGAGGCUGGCAGGUAUGGAAGGGUUUGUGGCUGGGGGCAGGAGGGC: 0.957
AUAAGAUGGCCGAAUUACUGAAAUCACCAUUAUACCUCUUCCAUAAAACGACUCCAAAGUUAGACCUGCCUGUUGGGGAGAAUUCUAUAGACAGAAGGUCAAUGUUGUCC: 1.05
CACCUCAGAAACUUCCACCCUCAUGACUGGAAUGGAAGAGGGGACCGAGAGCCUCACAAUCUCGGAGAGGGAGGAGAAAUUCUUAAAAACAGCUGCUCUCCUGCGCCCAG: 0.397
AUGAUCUGUUUUUAGCUGGAUGGUCUUUAUUACAAAGUAUUAGAUUUUUCUUCUAUUUAACGGAAAACUUGACUUUGGUGAAUGUGCAUUACUUCCUUUUAUUUUGCUCU: 0.697
AUGUUAAUGAUGGUGCAAUACUCUCACCUGCAGUAGAACUGAGUUCUGCUGCAGCUUGUGUAAAAGUGGGCAGUACACAAGUACGUCCCAAAGCCUGUGAGCAGUAUACG: 0.163
UAUUGCCAAAUGCUCUUUCUGAAAAUGCUGAAUUGCCUUUUUUGUUUGCAUCCUUUAUUUUUAAUAUUCAUAAUGUCGUGUGCUUAAAAGUGGGCUUUGAAGUGUGUGCU: 0.719
